Assay results collected from several papers.
Every numbered part comes from another study and shows a few of its results, in no order. Positions count from the first letter of the parent shown.

Study 1
Target: Histone acetyltransferase KAT6A, winged helix 1, GST fusion (KAT6A, Homo sapiens, UniProt Q92794, residues 1-85)
Method: protein binding microarray
Form: double-stranded DNA, one strand shown
Sample: in vitro
Tested at: not given
Notes: 8-mer, flanks averaged, mean of 2 arrays, mostly near background
Baseline: not given
Direction: higher = stronger binding
Construct (chain): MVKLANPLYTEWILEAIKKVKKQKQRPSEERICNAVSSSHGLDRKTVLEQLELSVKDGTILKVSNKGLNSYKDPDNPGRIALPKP
| Sequence | E-score |
| --- | --- |
| AGAACTCA | -0.159 |
| ACTTGTTA | -0.113 |
| CGGTCGAG | 0.114 |
| ATCGATGA | -0.209 |
| ATGTTCCA | -0.146 |
| CTTGTACC | -0.0191 |
| ACGGCCTC | 0.265 |
| GAATAAGC | -0.108 |
| AGGCAAGA | -0.164 |
| GATCAGCC | -0.123 |
| CAAGCCCC | -0.0801 |
| GTTGAGTA | -0.0122 |
| CCTTCTTA | -0.0852 |
| GAGCGATA | 0.00919 |
| ACTGCAGC | -0.0945 |
| GACTGCTC | -0.0787 |
| CTATTAAG | -0.17 |
| CATCCTCG | 0.121 |
| CGCCCGCG | 0.45 |
| CACTCCGG | 0.0182 |
| GGAGTTGA | -0.0905 |
| ACCTACCC | -0.0298 |
| CTAACTCC | -0.0308 |
| TAAACGGA | 0.182 |
| CGAGATCC | 0.0269 |

Study 2
Target: Fragile X messenger ribonucleoprotein 1, C-terminal low-complexity region (Fmr1, Mus musculus, UniProt P35922)
Method: RNA Bind-n-Seq
Form: RNA
Sample: in vitro
Tested at: 200 nM
Notes: whole 134-nt RNA, ends assumed
Added: 150 mM LiCl
Baseline: input library
Direction: higher = stronger binding
Each molecule: 7-deaza-guanosine replaces G
| Sequence | log2 enrichment |
| --- | --- |
| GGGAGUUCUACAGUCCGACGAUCAAGUCCUGUGCUACACAUCGUAUGUACCGAAUCGGGGUGGGGUUUUUGGGGAGGGGAAAGUAUUAUGUUACGCCGUUCGGAUCUGCACUUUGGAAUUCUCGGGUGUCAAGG | -0.109 |
| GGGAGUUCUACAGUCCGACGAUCCUGUGCUACACAUCGUAUGUACCGAAUCGGGGUUUUUUUGGGGUUUGGGGAAAAAAAGGGGAAAGUAUUAUGUUACGCCGUUCGGAUCUGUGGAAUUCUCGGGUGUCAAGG | -0.823 |
| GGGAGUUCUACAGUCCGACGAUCUCAAGUCCUGUGCUACACAUCGUAUGUACCGAAUCGGGGUUUGGUUUGGUUUGGGAAAGUAUUAUGUUACGCCGUUCGGAUCUGCACUUCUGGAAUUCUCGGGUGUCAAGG | -1.68 |
| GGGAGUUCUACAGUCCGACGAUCUUCCCUGUACCGGCAGAGUUCACAAACACAUUUGAAGAGGCUUUUUCUCAGGAUUCUUAACCUUCCCAAAGGAAGUCCCAUGGAUGGGUUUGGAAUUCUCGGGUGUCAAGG | -1.57 |
| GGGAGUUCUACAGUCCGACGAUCACCAUGCAGGUGGGCAUCUUUGGGAAGUGGGGCAAGGGGGGGAUAGGGAGGGGGGUAACACUUUGGGAACAGGUGGUCCCAAAUCGUUUCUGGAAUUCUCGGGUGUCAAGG | 1.22 |
| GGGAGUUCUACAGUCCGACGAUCUCAAGUCCUGUGCUACACAUCGUAUGUACCGAAUCGGGCCCGGGCCCGGCCCGGAAAGUAUUAUGUUACGCCGUUCGGAUCUGCACUUCCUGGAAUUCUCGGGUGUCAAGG | -1.87 |
| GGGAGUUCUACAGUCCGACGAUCAGUCCUGUGCUACACAUCGUAUGUACCGAAUCGGAAAAGGGAAAAGGGGAAAAGGGGAAAGUAUUAUGUUACGCCGUUCGGAUCUGCACUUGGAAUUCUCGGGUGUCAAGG | -0.69 |
| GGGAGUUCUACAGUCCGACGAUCGUCCUGUGCUACACAUCGUAUGUACCGAAUCGGGCCCCCGGGCCCCCGGGCCCCCGGGGAAAGUAUUAUGUUACGCCGUUCGGAUCUGCAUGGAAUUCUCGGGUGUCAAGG | -2.39 |
| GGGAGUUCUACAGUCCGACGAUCCUGUGCUACACAUCGUAUGUACCGAAUCGGAAAAAAAGGAAAAAAAGGGGAAAAAAAGGGGAAAGUAUUAUGUUACGCCGUUCGGAUCUGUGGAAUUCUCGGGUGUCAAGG | -0.244 |
| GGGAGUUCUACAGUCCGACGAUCAAGUCCUGUGCUACACAUCGUAUGUACCGAAUCGGGAAAAGGAAAAGGGGAAAAGGGAAAGUAUUAUGUUACGCCGUUCGGAUCUGCACUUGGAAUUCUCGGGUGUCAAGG | 0.168 |
| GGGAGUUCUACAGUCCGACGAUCUCAAGUCCUGUGCUACACAUCGUAUGUACCGAAUCGGGUUUGGGUUUGGUUUGGAAAGUAUUAUGUUACGCCGUUCGGAUCUGCACUUCCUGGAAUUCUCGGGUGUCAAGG | -0.828 |

Study 3
Target: Sal-like protein 4, full length isoform A (SALL4, Homo sapiens, UniProt Q9UJQ4, residues 1-1053)
Chain of UniProt Q9UJQ4 (whole entry, looked up): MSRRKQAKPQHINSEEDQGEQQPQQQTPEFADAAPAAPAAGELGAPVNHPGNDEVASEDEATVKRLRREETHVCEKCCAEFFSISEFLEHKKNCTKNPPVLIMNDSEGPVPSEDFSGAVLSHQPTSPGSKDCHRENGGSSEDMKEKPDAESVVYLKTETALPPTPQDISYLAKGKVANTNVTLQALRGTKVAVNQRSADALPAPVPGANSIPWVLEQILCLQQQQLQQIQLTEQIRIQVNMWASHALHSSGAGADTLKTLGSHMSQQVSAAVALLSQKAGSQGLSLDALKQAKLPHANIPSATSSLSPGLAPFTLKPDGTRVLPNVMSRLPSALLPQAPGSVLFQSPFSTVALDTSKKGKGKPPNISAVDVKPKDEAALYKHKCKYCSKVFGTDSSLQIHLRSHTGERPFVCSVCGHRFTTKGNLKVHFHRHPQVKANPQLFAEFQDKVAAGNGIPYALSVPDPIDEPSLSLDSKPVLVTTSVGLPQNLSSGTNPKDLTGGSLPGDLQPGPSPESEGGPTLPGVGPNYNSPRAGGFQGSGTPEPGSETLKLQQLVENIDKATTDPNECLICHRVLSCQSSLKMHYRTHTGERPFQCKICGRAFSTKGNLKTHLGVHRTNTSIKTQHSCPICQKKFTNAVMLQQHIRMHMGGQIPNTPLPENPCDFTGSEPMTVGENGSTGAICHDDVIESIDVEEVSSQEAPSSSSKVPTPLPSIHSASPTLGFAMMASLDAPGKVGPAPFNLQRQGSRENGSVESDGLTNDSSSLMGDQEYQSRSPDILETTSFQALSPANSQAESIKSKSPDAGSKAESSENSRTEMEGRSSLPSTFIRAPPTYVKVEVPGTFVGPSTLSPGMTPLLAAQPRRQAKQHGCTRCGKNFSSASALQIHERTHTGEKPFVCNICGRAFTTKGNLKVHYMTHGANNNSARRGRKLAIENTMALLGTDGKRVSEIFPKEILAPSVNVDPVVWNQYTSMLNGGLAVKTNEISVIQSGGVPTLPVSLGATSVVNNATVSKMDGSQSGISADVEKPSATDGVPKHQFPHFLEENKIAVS
Method: universal PBM
Form: double-stranded DNA, one strand shown
Sample: in vitro
Tested at: 600 nM
Notes: 8-mer, flanks averaged, mean of replicates
Direction: higher = stronger binding
| Sequence | E-score |
| --- | --- |
| TCAATAAA | 0.411 |
| ATGCCCTG | -0.143 |
| TTCAGGAA | 0.0931 |
| ACCAAGCC | -0.13 |
| CAGATTTC | 0.0417 |
| AAAACGTC | 0.169 |
| ACGCGTAT | 0.109 |
| CCGTTACG | -0.0973 |
| CAAGGCCG | -0.271 |
| GGTTTTCA | 0.186 |
| CGTCAAGA | -0.0909 |
| CGAAACCG | -0.27 |
| CCTACCAA | 0.00734 |
| CTGTTGAC | -0.0443 |
| ACTGTCGA | -0.0394 |
| AGTGGCTG | -0.256 |
| CATGAACG | -0.0602 |
| ATTAGGCA | 0.11 |
| CGGACATA | 0.0821 |

Study 4
Target: RNA binding protein fox-1 homolog 2, RRM domain, GST-SBP tag (RBFOX2, Homo sapiens, UniProt O43251-10, residues 100-194)
Method: RNA Bind-n-Seq
Form: RNA
Sample: in vitro
Tested at: 365 nM
Notes: natural RNA segment, single round, ends assumed
Baseline: no-protein control
Direction: higher = stronger binding
Construct (chain): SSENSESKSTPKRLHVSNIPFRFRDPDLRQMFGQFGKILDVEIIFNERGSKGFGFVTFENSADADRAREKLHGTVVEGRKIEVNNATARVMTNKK
| Sequence | RBNS enrichment (R) |
| --- | --- |
| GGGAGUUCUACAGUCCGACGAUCAGACGGAGAAAAGGACUAGUGGCUGCCAACGCGCACGCUCGGGUCCGAGGCUGCUCCCCUGGAGCGGCGCCCCUGCGCCCUCAGCCCGAGCAGCGACAUCCACUCGCCAUUGGAAUUCUCGGGUGCCAA | 0.232 |
| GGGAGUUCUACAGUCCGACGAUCAACUGGGCUCAAACAAUCCUCAGCCUAAAACACUGUUGUCUUUUAAUAUGCUUCCAACCCAAAGGCCUUUCAUCUCAGUAUCUGUCAAACUUGAAUAACGUCUUCUCUUUUGGAAUUCUCGGGUGCCAA | 0.531 |
| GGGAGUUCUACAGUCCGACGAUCGUGGGGCCCUGGAUGGCAGCUCUGGCCCAGACAUGAAUACCUCGUGUUCCUCCUCCCUCUAUUACUGUUUCACCAGAGCUGUCUUAGCUCAAAUCUGUUGUGUUUCUGAGUGGAAUUCUCGGGUGCCAA | 0.478 |
| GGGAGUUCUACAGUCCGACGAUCCACUGACUGCAAACUGUCUCUUGCUCCUGAACUUCAAUAGCUGCCUUCCUCACCGCAGAUGUCUGUCUCCGAGAUCUGCAACCGUCUUGCUGACUAGGGCUUGGGCUAGAUGGAAUUCUCGGGUGCCAA | 0.779 |
| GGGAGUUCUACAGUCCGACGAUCCCUCACUGAGUGCCUCAUCCUACCGGGUGUCCCUUUGCCACCCUGCCUGGGACAUCGCUGGAACCUGCACCAUGCCAGGAUCAUGGGACCAGGCGAGAGGGCACCCUCCCUGGAAUUCUCGGGUGCCAA | 0.264 |
| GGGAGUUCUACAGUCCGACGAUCACUCUGAGAAUGUUUCCAAGUGAGAGUCACUUUCUUGACCCUCAAGAGAAGCUAGACGACACAGAAGAACCUUAAUGGACAGUGUACCCAUGCUUGAUCUGUCUCACACCUGGAAUUCUCGGGUGCCAA | 0.513 |
| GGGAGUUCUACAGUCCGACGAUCAGGUCACCCCACCCUAGAAUCCGCAUGGUUUCCCUGUGAUUGCACUCCACUGCCACCGUGGUGCCUGGCUUCAGCUCCCCUCCCCCAAUCCCUGCUAAGCCUCUACUCUGUGGAAUUCUCGGGUGCCAA | 1.07 |
| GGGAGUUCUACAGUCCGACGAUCAGCUUGCUGAAAUGGAAAACUUGGAAGAAUUGUUCAUCUCUUAGGCUUCCAUUUGGAUGGGCCUGCCUUAACAUUGUUUGAAAUGCAGCGUGAGUAGCUCUUUUGUUUACUGGAAUUCUCGGGUGCCAA | 0.302 |
| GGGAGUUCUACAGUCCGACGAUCUGGUGUGUUGUGAUCCAGGGAAUGAAAAGAAAUUUGACCCUGGAUUGGUUCUCUCCUUGGACUUAAGGAAUCUUACCUUUUCCUUCCACAAAGUUCUCCCAGGCAAGGACUGGAAUUCUCGGGUGCCAA | 0.356 |
| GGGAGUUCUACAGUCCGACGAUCAGUUUUGGAUAUGGGUGGUUUUCUUUUCCGGGUUUGGUGGAAAGUAAUUUGAGAACUUUAAGGUUGUCUUUUUAACUGCUGGCAAAAUGUUGAUUUUUUAAUAUUAGAUAUGGAAUUCUCGGGUGCCAA | 0.776 |
| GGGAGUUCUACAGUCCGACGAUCUUCUCAAGGUCACAGGCCCCAGUCCCAGCCUGGGGGCUGGCAGAGGCCCCCAUAUACUCUGCUACAGCUCCUAUCAUGAAAAAUAAAAUGUUUGUCUUUGCAAAACAGUAUGGAAUUCUCGGGUGCCAA | 0.488 |
| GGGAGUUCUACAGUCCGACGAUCGCACAGCGCACUGUGGAGCAGAGAGGAGGGAGACAGGAGUAGGGUUAUCAGGGAAGCUUGCUCUGCCAGGCUGCUCCAGGAUGCCAGCUUGUCUCUGACUCGGUUGAGGUUGGAAUUCUCGGGUGCCAA | 0.525 |

Study 5
Target: CCNE1, cyclin fold, Cln2 fusion (human)
Method: yeast growth competition, sequencing
Sample: yeast
Notes: strong parent motif
Baseline: not given
Direction: higher = stronger binding
Parent: INSM1 docking peptide (human); PKAIRKLHFEDEV
| Variant | normalised enrichment score |
| --- | --- |
| E10G | 4.64 |
| R5M | 0.831 |
| K6R | 4.54 |
| L7R | 0.182 |
| D11K | 1.6 |
| A3E | 0.406 |
| R5F | -0.0157 |
| R5P | 0.0865 |
| E12P | 3.7 |
| E12R | 2.51 |
| R5C | 0.55 |
| E12T | 3.75 |
| L7Y | 0.158 |
| E10T | 3.34 |
| K2E | 2.64 |
| A3G | 2.41 |
| E12W | 3.24 |

Further values, each from its own experiment
| Molecule | target | assay | system | setting | scale | measurement | value |
| --- | --- | --- | --- | --- | --- | --- | --- |
| PhoQ, residues 284 288 289 292 302 303 ASVMEA | PhoP, residues 12 14 15 18 19 VQALL (Escherichia coli, UniProt P23836) | Sort-seq, measured: YFP reporter | E. coli | PhoQ-PhoP variant library, added: 10 µM Mg2+ | baseline: high Mg2+ state, higher = stronger signaling | fold induction | 17.7 |

A few entries again (study 1):
| Sequence | E-score |
| --- | --- |
| ACGGCCTC | 0.265 |
| GAATAAGC | -0.108 |
| AGGCAAGA | -0.164 |
| GATCAGCC | -0.123 |
| CAAGCCCC | -0.0801 |
| GTTGAGTA | -0.0122 |
| CCTTCTTA | -0.0852 |
| GAGCGATA | 0.00919 |
| ACTGCAGC | -0.0945 |
| GACTGCTC | -0.0787 |
| CTATTAAG | -0.17 |
| CATCCTCG | 0.121 |
| CGCCCGCG | 0.45 |
